Results pooled from the literature.

SMILES	system	conditions	measurement	value
CC(C)NC(=O)COc1cccc(-c2nc(Nc3ccc4[nH]ncc4c3)c3ccccc3n2)c1	human male, plasma	oral, 200 mg once daily, day 12, fed, geometric mean, with: dabigatran etexilate	AUC(0-tau)	11000 ng·h/mL
CCCCOCCOc1ccc(-c2ccc3c(c2)/C=C(/C(=O)Nc2ccc([S@@+]([O-])Cc4cncn4CCC)cc2)CCCN3CC(C)C)cc1	human, mild hepatic impairment, plasma	oral, 150 mg, day 1, geometric mean	AUC(0-tau)	4560 ng·h/mL
COc1cc(C(=O)NC2CCN(C)CC2)c(F)cc1Nc1ncc(C(F)(F)F)c(Oc2cccc3c2C(=O)N(C)C3)n1	human, Japanese, plasma	oral, 200 mg single dose, geometric mean	AUC(0-tau) cycle 1	16.7 µM·h
O=C(O)CCC(=O)O.[2H]C([2H])([2H])Oc1cc(C)c2[nH]ccc2c1CN1CC[C@@H](C2CC2)C[C@H]1c1ccc(C(=O)O)cc1	human, plasma	125 mg twice daily, day 10, multiple ascending dose, geometric mean	AUC(0-tau)	44200 ng·h/mL
Cc1ncnc2c1ccn2[C@@H]1C[C@H](Oc2cc(C(F)F)c(F)c3c2CNCC3)[C@@H](O)[C@H]1O	human	oral, 0.5 mg twice daily	AUC(0-tau)	45.5 ng·h/mL
CCOc1c([C@H](C)n2nc(C)c3c(N)ncnc32)cc(Cl)c(F)c1[C@@H]1CNC(=O)C1	human, indolent lymphoma, plasma	oral, 20 mg, day 15, geometric mean	AUC(0-tau)	12.2 µM·h
Cc1noc(C)c1-c1cc(C(O)(c2ccccn2)c2ccccn2)c2nc(C3CC3)[nH]c2c1	human patients, plasma	oral, 2 mg, cycle 1 day 8, monotherapy	AUC(0-tau)	1590 ng·h/mL
CCN1CCN(Cc2ccc(Nc3ncc(F)c(-c4cc(F)c5nc6n(c5c4)[C@H](C)CCC6)n3)nc2)CC1	human, plasma	100 mg multiple dosing, mean	AUC(0-tau)	3320 ng·h/mL

Some of these lines once more:
SMILES	system	conditions	measurement	value
Cc1noc(C)c1-c1cc(C(O)(c2ccccn2)c2ccccn2)c2nc(C3CC3)[nH]c2c1	human patients, plasma	oral, 2 mg, cycle 1 day 8, monotherapy	AUC(0-tau)	1590 ng·h/mL
